Results of several laboratories.
Every numbered part comes from another study and shows a few of its results, in no order. “And” joins repeats or separate records; there may be more than shown.
Chain of UniProt Q96SW2 (whole entry, looked up): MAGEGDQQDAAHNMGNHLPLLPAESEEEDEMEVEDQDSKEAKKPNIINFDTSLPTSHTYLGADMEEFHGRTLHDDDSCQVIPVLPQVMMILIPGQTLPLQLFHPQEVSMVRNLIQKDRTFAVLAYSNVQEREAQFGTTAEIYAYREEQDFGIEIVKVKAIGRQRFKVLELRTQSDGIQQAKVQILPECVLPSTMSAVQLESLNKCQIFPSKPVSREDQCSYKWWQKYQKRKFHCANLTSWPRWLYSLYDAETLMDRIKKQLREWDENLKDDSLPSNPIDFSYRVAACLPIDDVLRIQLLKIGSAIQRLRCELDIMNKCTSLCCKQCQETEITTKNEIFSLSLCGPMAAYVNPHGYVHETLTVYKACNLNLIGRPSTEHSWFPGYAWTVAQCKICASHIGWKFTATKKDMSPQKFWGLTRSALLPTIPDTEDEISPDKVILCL
Chain of UniProt Q99640 (whole entry, looked up): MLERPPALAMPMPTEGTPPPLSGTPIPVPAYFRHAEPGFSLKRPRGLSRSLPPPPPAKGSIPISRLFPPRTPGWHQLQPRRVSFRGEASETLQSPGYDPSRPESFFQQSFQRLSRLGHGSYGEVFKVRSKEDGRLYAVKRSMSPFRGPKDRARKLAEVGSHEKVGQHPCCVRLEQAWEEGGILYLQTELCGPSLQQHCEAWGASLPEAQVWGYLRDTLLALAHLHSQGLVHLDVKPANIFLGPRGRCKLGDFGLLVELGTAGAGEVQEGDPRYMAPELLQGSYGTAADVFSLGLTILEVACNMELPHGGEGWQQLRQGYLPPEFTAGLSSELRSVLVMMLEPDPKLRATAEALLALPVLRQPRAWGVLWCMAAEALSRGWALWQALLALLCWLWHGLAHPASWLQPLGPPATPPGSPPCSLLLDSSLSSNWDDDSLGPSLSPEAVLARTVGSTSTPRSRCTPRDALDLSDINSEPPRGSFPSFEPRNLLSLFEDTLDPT

Block 1
Compound: CCN1/C(=C/C=C2\CCCC(/C=C/C3=[N+](CC)c4ccccc4C3(C)C)=C2NCCCCCCCCN2CCC(Nc3nc4ccccc4n3Cc3ccc(F)cc3)CC2)C(C)(C)c2ccccc21
Cell line: U-87 MG
Tested at: concentration not given
Relative to: DMSO
Measurement: log2 fold change
measured: INCENP: -1.72
measured: FOXP1 mRNA: 0.987
measured: SAPCD2 mRNA: -2.55
measured: ITPR1 mRNA: 1
measured: TFDP1 mRNA: -0.958
measured: TRABD2A mRNA: -1.68
measured: NAPEPLD mRNA: -0.838
measured: TRIB3 mRNA: 2.32

Block 2
Compound: C[C@@H]1CN(c2ccc(-c3cc(C(=O)NCCOCCOCCOCCOCCOCCOCCNC(=O)/C=C/c4[nH]cc(C(=O)N[C@@H](CC(N)=O)c5ccc(F)c(Cl)c5)c4-c4ccc(Cl)cc4F)ccc3F)cc2NC(=O)c2ccc(F)cc2C(F)(F)F)C[C@H](C)N1C
Observed: thermal unfolding
Technique: differential scanning fluorimetry
Tested at: 5.5 µM
Reading: higher = more unfolded
Measurement: SYPRO Orange fluorescence
DCAF1: DDB1- and CUL4-associated factor 1 (DCAF1, Homo sapiens, UniProt Q9Y4B6)
Chain of UniProt Q9Y4B6 (whole entry, looked up): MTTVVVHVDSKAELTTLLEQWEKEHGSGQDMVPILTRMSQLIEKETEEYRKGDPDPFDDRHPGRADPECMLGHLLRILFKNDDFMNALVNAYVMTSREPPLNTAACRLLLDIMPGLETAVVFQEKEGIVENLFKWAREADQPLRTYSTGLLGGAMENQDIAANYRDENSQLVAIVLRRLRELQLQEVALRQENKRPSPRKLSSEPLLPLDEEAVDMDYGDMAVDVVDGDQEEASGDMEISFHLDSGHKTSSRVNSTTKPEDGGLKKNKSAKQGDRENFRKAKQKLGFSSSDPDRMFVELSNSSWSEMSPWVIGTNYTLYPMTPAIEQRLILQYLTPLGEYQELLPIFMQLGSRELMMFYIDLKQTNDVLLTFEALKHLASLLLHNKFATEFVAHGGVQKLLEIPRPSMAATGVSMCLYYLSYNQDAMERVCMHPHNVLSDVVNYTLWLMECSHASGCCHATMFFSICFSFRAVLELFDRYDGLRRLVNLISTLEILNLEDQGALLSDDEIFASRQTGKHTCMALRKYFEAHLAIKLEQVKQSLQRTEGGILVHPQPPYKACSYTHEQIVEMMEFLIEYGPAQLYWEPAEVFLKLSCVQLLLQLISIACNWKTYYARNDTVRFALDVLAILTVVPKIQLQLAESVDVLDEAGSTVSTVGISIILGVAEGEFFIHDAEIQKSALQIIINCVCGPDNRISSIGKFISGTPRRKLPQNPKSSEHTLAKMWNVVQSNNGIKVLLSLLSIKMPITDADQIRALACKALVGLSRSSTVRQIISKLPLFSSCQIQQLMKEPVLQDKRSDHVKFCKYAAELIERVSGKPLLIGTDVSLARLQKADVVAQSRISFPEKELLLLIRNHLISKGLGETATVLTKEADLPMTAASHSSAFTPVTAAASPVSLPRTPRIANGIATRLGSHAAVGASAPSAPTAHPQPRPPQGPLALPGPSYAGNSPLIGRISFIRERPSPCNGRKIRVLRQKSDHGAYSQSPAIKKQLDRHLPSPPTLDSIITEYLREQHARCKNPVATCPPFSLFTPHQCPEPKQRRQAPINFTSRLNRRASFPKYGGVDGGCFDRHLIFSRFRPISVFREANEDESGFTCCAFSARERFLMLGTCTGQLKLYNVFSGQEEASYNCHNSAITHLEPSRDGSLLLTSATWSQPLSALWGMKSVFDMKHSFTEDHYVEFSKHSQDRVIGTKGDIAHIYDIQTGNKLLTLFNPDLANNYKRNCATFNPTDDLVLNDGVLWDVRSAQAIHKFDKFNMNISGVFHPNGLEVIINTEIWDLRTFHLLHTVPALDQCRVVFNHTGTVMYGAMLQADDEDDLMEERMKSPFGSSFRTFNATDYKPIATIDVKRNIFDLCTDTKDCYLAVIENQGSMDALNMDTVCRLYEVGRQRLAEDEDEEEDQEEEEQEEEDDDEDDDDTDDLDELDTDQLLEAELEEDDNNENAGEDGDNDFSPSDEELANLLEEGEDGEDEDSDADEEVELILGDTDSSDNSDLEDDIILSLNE
WDR5: WD repeat-containing protein 5 (WDR5, Homo sapiens, UniProt P61964)
DCAF1; 85.21 °C: 35700 a.u.
DCAF1; 25 °C: 7500 a.u.
WDR5; 54.21 °C: 16900 a.u.
DCAF1; 43.2 °C: 13600 a.u.
DCAF1; 81.81 °C: 38700 a.u.
DCAF1; 81.21 °C: 39200 a.u.
DCAF1; 84.41 °C: 36500 a.u.
DCAF1; 59.01 °C: 43100 a.u.
DCAF1; 47 °C: 15800 a.u.
DCAF1; 35.4 °C: 10000 a.u.
WDR5; 87.21 °C: 59000 a.u.

Mixed results
Cc1ccc(O)c(C)c1-c1cnc2[nH]c(-c3cnc(N4CCC(CCN5CCN(c6ccc7c(c6)C(=O)N(C6CCC(=O)NC6=O)C7=O)CC5)CC4)nc3)cc2c1C#N (racemic) — inhibition (Membrane-associated tyrosine- and threonine-specific cdc2-inhibitory kinase (PKMYT1, Homo sapiens, UniProt Q99640); binding, HTRF; 111.11 nM): 98.9% and 98.1%
Cc1ncsc1-c1ccc(C(CO)NC(=O)C2CC(O)CN2C(=O)C(C(C)C)n2cc(-c3ccc(COc4c(-c5c(C)c(F)cc6[nH]ncc56)c(C5CC5)cc5c(N6CC7CC6CN7)nc(OC6CCOCC6)nc45)cc3)nn2)cc1 (stereo not drawn) — mRNA level (qRT-PCR, measured: SPRY4; mouse, PK-59 xenograft, tumour; 30 mg/kg, 144 h, unit not given; relative to: vehicle): 0.536 and 0.389
Cc1ncc(-c2cc3c(C#N)c(-c4c(C)ccc(O)c4C)cnc3[nH]2)cn1 — plasma concentration (Sprague-Dawley rat; intravenous, dose not given, 8 h): not detected
Cc1ccc(O)c(C)c1-c1cnc2[nH]c(-c3cnc(N4CCC5(CC4)CC(CN4CCN(c6ccc(NC7CCC(=O)NC7=O)cc6F)CC4)C5)nc3)cc2c1C#N (stereo not drawn) — Cmax (female CD-1 mouse, plasma; oral, 20 mg/kg): 472 ng/mL
Cc1ccc(O)c(C)c1-c1cnc2[nH]c(-c3cnc(N4CCC5(CC4)CC(N4CCN(c6ccc(N[C@@H]7CCC(=O)NC7=O)cc6F)CC4)CO5)nc3)cc2c1C#N (single isomer, unassigned) — inhibition (Protein cereblon (CRBN, Homo sapiens, UniProt Q96SW2); binding; 1111.11 nM): 10.5% and 11.8%

Repeated from above (block 1):
measured: ITPR1 mRNA: 1
measured: TFDP1 mRNA: -0.958
measured: TRABD2A mRNA: -1.68
